Published values from different studies.
Each line is one published result; not all experiments were run side by side. ± gives the spread as reported.
U2AF2: U2AF2 148-342 (Homo sapiens, UniProt P26368)
UniProt P26368, sequence (whole entry, looked up): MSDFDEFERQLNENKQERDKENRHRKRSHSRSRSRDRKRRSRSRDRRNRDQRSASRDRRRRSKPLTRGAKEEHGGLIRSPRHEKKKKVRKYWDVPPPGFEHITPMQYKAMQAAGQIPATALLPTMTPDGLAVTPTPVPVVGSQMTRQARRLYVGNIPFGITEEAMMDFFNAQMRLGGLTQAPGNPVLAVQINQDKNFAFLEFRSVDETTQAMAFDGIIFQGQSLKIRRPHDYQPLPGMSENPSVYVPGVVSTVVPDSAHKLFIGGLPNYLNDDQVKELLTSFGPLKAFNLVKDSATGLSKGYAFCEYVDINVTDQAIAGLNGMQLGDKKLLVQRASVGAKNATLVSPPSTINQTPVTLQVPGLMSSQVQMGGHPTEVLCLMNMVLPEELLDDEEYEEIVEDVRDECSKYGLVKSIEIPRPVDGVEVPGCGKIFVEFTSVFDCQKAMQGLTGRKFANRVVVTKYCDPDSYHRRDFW
B1: human ADAR1; sequence looked up; chain MNPRQGYSLSGYYTHPFQGYEHRQLRYQQPGPGSSPSSFLLKQIEFLKGQLPEAPVIGKQTPSLPPSLPGLRPRFPVLLASSTRGRQVDIRGVPRGVHLRSQGLQRGFQHPSPRGRSLPQRGVDCLSSHFQELSIYQDQEQRILKFLEELGEGKATTAHDLSGKLGTPKKEINRVLYSLAKKGKLQKEAGTPPLWKIAVSTQAWNQHSGVVRPDGHSQGAPNSDPSLEPEDRNSTSVSEDLLEPFIAVSAQAWNQHSGVVRPDSHSQGSPNSDPGLEPEDSNSTSALEDPLEFLDMAEIKEKICDYLFNVSDSSALNLAKNIGLTKARDINAVLIDMERQGDVYRQGTTPPIWHLTDKKRERMQIKRNTNSVPETAPAAIPETKRNAEFLTCNIPTSNASNNMVTTEKVENGQEPVIKLENRQEARPEPARLKPPVHYNGPSKAGYVDFENGQWATDDIPDDLNSIRAAPGEFRAIMEMPSFYSHGLPRCSPYKKLTECQLKNPISGLLEYAQFASQTCEFNMIEQSGPPHEPRFKFQVVINGREFPPAEAGSKKVAKQDAAMKAMTILLEEAKAKDSGKSEESSHYSTEKESEKTAESQTPTPSATSFFSGKSPVTTLLECMHKLGNSCEFRLLSKEGPAHEPKFQYCVAVGAQTFPSVSAPSKKVAKQMAAEEAMKALHGEATNSMASDNQPEGMISESLDNLESMMPNKVRKIGELVRYLNTNPVGGLLEYARSHGFAAEFKLVDQSGPPHEPKFVYQAKVGGRWFPAVCAHSKKQGKQEAADAALRVLIGENEKAERMGFTEVTPVTGASLRRTMLLLSRSPEAQPKTLPLTGSTFHDQIAMLSHRCFNTLTNSFQPSLLGRKILAAIIMKKDSEDMGVVVSLGTGNRCVKGDSLSLKGETVNDCHAEIISRRGFIRFLYSELMKYNSQTAKDSIFEPAKGGEKLQIKKTVSFHLYISTAPCGDGALFDKSCSDRAMESTESRHYPVFENPKQGKLRTKVENGEGTIPVESSDIVPTWDGIRLGERLRTMSCSDKILRWNVLGLQGALLTHFLQPIYLKSVTLGYLFSQGHLTRAICCRVTRDGSAFEDGLRHPFIVNHPKVGRVSIYDSKRQSGKTKETSVNWCLADGYDLEILDGTRGTVDGPRNELSRVSKKNIFLLFKKLCSFRYRRDLLRLSYGEAKKAARDYETAKNYFKKGLKDMGYGNWISKPQEEKNFYLCPV
B2: gasdermin-A (human); sequence looked up; chain MTMFENVTRALARQLNPRGDLTPLDSLIDFKRFHPFCLVLRKRKSTLFWGARYVRTDYTLLDVLEPGSSPSDPTDTGNFGFKNMLDTRVEGDVDVPKTVKVKGTAGLSQNSTLEVQTLSVAPKALETVQERKLAADHPFLKEMQDQGENLYVVMEVVETVQEVTLERAGKAEACFSLPFFAPLGLQGSINHKEAVTIPKGCVLAFRVRQLMVKGKDEWDIPHICNDNMQTFPPGEKSGEEKVILIQASDVGDVHEGFRTLKEEVQRETQQVEKLSRVGQSSLLSSLSKLLGKKKELQDLELALEGALDKGHEVTLEALPKDVLLSKEAVGAILYFVGALTELSEAQQKLLVKSMEKKILPVQLKLVESTMEQNFLLDKEGVFPLQPELLSSLGDEELTLTEALVGLSGLEVQRSGPQYMWDPDTLPRLCALYAGLSLLQQLTKAS
B3: human DDX17; sequence looked up; chain MPTGFVAPILCVLLPSPTREAATVASATGDSASERESAAPAAAPTAEAPPPSVVTRPEPQALPSPAIRAPLPDLYPFGTMRGGGFGDRDRDRDRGGFGARGGGGLPPKKFGNPGERLRKKKWDLSELPKFEKNFYVEHPEVARLTPYEVDELRRKKEITVRGGDVCPKPVFAFHHANFPQYVMDVLMDQHFTEPTPIQCQGFPLALSGRDMVGIAQTGSGKTLAYLLPAIVHINHQPYLERGDGPICLVLAPTRELAQQVQQVADDYGKCSRLKSTCIYGGAPKGPQIRDLERGVEICIATPGRLIDFLESGKTNLRRCTYLVLDEADRMLDMGFEPQIRKIVDQIRPDRQTLMWSATWPKEVRQLAEDFLRDYTQINVGNLELSANHNILQIVDVCMESEKDHKLIQLMEEIMAEKENKTIIFVETKRRCDDLTRRMRRDGWPAMCIHGDKSQPERDWVLNEFRSGKAPILIATDVASRGLDVEDVKFVINYDYPNSSEDYVHRIGRTARSTNKGTAYTFFTPGNLKQARELIKVLEEANQAINPKLMQLVDHRGGGGGGGGRSRYRTTSSANNPNLMYQDECDRRLRGVKDGGRRDSASYRDRSETDRAGYANGSGYGSPNSAFGAQAGQYTYGQGTYGAAAYGTSSYTAQEYGAGTYGASSTTSTGRSSQSSSQQFSGIGRSGQQPQPLMSQQFAQPPGATNMIGYMGQTAYQYPPPPPPPPPSRK
B4: peripherin, human; sequence looked up; chain MSHHPSGLRAGFSSTSYRRTFGPPPSLSPGAFSYSSSSRFSSSRLLGSASPSSSVRLGSFRSPRAGAGALLRLPSERLDFSMAEALNQEFLATRSNEKQELQELNDRFANFIEKVRFLEQQNAALRGELSQARGQEPARADQLCQQELRELRRELELLGRERDRVQVERDGLAEDLAALKQRLEEETRKREDAEHNLVLFRKDVDDATLSRLELERKIESLMDEIEFLKKLHEEELRDLQVSVESQQVQQVEVEATVKPELTAALRDIRAQYESIAAKNLQEAEEWYKSKYADLSDAANRNHEALRQAKQEMNESRRQIQSLTCEVDGLRGTNEALLRQLRELEEQFALEAGGYQAGAARLEEELRQLKEEMARHLREYQELLNVKMALDIEIATYRKLLEGEESRISVPVHSFASLNIKTTVPEVEPPQDSHSRKTVLIKTIETRNGEVVTESQKEQRSELDKSSAHSY
B5: BAG2; sequence looked up; chain AQAKINAKANEGRFCRSSSMADRSSRLLESLDQLELRVEALREAATAVEQEKEILLEMIHSIQNSQDMRQISDGEREELNLTANRLMGRTLTVEVSVETIRNPQQQESLKHATRIIDEVVNKFLDDLGNAKSHLMSLYSACSSEVPHGPVDQKFQSIVIGCALEDQKKIKRRLETLLRNIENSDKAIKLLEHSKGAGSKTLQQNAESRFN
B6: human calmodulin-like protein 5; sequence looked up; chain AGELTPEEEAQYKKAFSAVDTDGNGTINAQELGAALKATGKNLSEAQLRKLISEVDSDGDGEISFQEFLTAAKKARAGLEDLQVAFRAFDQDGDGHITVDELRRAMAGLGQPLPQEELDAMIREADVDQDGRVNYEEFARMLAQE
UniProt P13393, sequence (whole entry, looked up): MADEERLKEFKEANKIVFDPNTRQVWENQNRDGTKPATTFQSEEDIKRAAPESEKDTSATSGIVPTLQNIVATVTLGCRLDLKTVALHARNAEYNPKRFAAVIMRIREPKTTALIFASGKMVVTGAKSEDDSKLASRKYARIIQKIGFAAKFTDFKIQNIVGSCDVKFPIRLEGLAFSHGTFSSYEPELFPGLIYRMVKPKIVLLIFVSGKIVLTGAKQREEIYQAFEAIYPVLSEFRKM

Molecule | target or system | assay | test system | setting | how to read | measurement | value
EIEPIGFEY | Jurkat expressing engineered TCR | NFAT-eGFP reporter, fluorescence microscopy | peptide | concentration not given, HLA-A*01:01 on EL4 cells |  | GFP-positive cells | 0.342%
pregnenolone sulfate | MIN6 and INS1 cells | agonist, calcium microfluorimetry |  | concentration not given, not DTT-treated |  | responding cells | 90%
B1 (human ADAR1) | CYB5R4 knockout human cells | PP4 interaction, 3xFLAG-PP4C IP-MS |  | concentration not given | baseline: CYB5R4 KO over parental | log2 fold change | -1.41
HVDPIGMMY | Jurkat expressing engineered TCR | NFAT-eGFP reporter, fluorescence microscopy | peptide | concentration not given, HLA-A*01:01 on EL4 cells |  | GFP-positive cells | 0.416%
catalase | LS174T | western blot, measured: p27 |  | concentration not given, 48 h |  | protein level | increased
GRKKRRQRRRPQ | HEK expressing SEP-GluA1 | SEP-GluA1 internalization, flow cytometry | peptide |  | baseline: untreated | lowest effective concentration | ≥ 1 µM
epoetin alfa | UT7/EPO | RT-qPCR, measured: IER3 |  | concentration not given, 90 min, normalized to HPRT1 | baseline: vehicle | mRNA level | 5.9 fold
LADPHVDEY | Jurkat expressing engineered TCR | NFAT-eGFP reporter, fluorescence microscopy | peptide | concentration not given, HLA-A*01:01 on EL4 cells |  | GFP-positive cells | 0.461%
B2 (gasdermin-A) | CYB5R4 knockout human cells | PP4 interaction, 3xFLAG-PP4C IP-MS |  | concentration not given | baseline: CYB5R4 KO over parental | log2 fold change | 0.48
CCUUUCCCC (ssRNA) | U2AF2 | sequencing of bound RNA | RNA | motif only |  | Kd | 1270 nM
B3 (human DDX17) | CYB5R4 knockout human cells | PP4 interaction, 3xFLAG-PP4C IP-MS |  | concentration not given | baseline: CYB5R4 KO over parental | log2 fold change | -0.96
Peginesatide | UT7/EPO | tyrosine phosphorylation, LC-MS/MS phosphoproteomics, trypsin, measured: CBL tyrosine 700 |  | 10 nM, 15 min, with: 10 U/mL EPO | baseline: vehicle | phosphorylation level | 8.1 fold
B4 (peripherin, human) | CYB5R4 knockout human cells | PP6 interaction, 3xFLAG-PP6C IP-MS |  | concentration not given | baseline: CYB5R4 KO over parental | log2 fold change | -0.62
recombinant human interleukin-6 | enteroid monolayers | RT-qPCR, measured: ABCC1 |  | 10 ng/mL, 48 h |  | decrease in mRNA level | 45 to 50%
ELEPIYLEY | Jurkat expressing engineered TCR | NFAT-eGFP reporter, fluorescence microscopy | peptide | concentration not given, HLA-A*01:01 on EL4 cells |  | GFP-positive cells | 0.601%
B5 (BAG2) | CYB5R4 knockout human cells | PP4 interaction, 3xFLAG-PP4C IP-MS |  | concentration not given | baseline: CYB5R4 KO over parental | log2 fold change | 2.2
CUUCUUGCU (ssRNA) | U2AF2 | sequencing of bound RNA | RNA | motif only |  | Kd | 3260 nM
YIDPIHLLY | Jurkat expressing engineered TCR | NFAT-eGFP reporter, fluorescence microscopy | peptide | concentration not given, HLA-A*01:01 on EL4 cells |  | GFP-positive cells | 0.429%
TACTTGAAGTTGACAATATTATTTAAGGACCTATTTCAAGTCAATCGGTCC (dsDNA; 5'-amino-C6 primer) | SPT15 full length assumed (Saccharomyces cerevisiae, UniProt P13393) | array | double-stranded DNA, one strand shown | TBP alone |  | Kd | 25.4 ± 5.21 nM
B6 | CYB5R4 knockout human cells | PP4 interaction, 3xFLAG-PP4C IP-MS |  | concentration not given | baseline: CYB5R4 KO over parental | log2 fold change | 2.49
MTVCNASQRQAHAQATAVSL | SKOV3 | phage binding | peptide |  | baseline: targeting over control phage | selectivity ratio | 0.97 ± 0.37

Some of these lines once more:
Molecule | target or system | assay | test system | setting | how to read | measurement | value
YIDPIHLLY | Jurkat expressing engineered TCR | NFAT-eGFP reporter, fluorescence microscopy | peptide | concentration not given, HLA-A*01:01 on EL4 cells |  | GFP-positive cells | 0.429%
TACTTGAAGTTGACAATATTATTTAAGGACCTATTTCAAGTCAATCGGTCC (dsDNA; 5'-amino-C6 primer) | SPT15 full length assumed (Saccharomyces cerevisiae, UniProt P13393) | array | double-stranded DNA, one strand shown | TBP alone |  | Kd | 25.4 ± 5.21 nM
